Results of several laboratories.
Each numbered part is a random draw from the data of one study; scales do not carry over between parts. Substitutions count along the parent as printed.

Series 1
Target: RNA binding protein fox-1 homolog 2, RRM domain, GST-SBP tag (RBFOX2, Homo sapiens, UniProt O43251-10, residues 100-194)
Method: RNA Bind-n-Seq
Form: RNA
Sample: in vitro
Concentration: 365 nM
Notes: natural RNA segment, single round, ends assumed
Baseline: no-protein control
Reading: higher = stronger binding
Residues (chain): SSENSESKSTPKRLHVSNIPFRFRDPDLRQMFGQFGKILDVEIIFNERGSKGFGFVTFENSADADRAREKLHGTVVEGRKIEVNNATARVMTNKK
`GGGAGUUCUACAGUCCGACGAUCAGAGUUAAGGUCUUAAAAUGUAUUUUGUCCUAAAUAAACUGCGUUUGGUAAACCUUGGCUGGCAAGAGUUCUGGCUCUCACCCAGUAUUUCCUGGUAUUUGUUUUAAAGUUGGAAUUCUCGGGUGCCAA`: “RBNS enrichment (R)” 0.443.
For `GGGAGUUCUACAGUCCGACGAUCACCAAAGAACCAGAAACUUAAUUUUGGUUAAAUUAUUUAUUUAUUUCAUGCAUUAAUUUUCUUUUUCUUUUUAAAGGUUUAGAUGAGGCUCCUUAGGGAGUCUCUAAAACUGGAAUUCUCGGGUGCCAA`, “RBNS enrichment (R)” read 0.408.
Under “RBNS enrichment (R)”, `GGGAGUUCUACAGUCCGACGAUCAGAGUUUAAGUGUUUGCUCUUUCCCCGAAGUCUUUAAAGGACCUUGAAGCAGGUCACCAUGCUUGCAAAUUAAGUUUCAGCAGCUCUACCUCCUGGCAGAAGGACUGAGUUGGAAUUCUCGGGUGCCAA` is recorded as 0.237.
`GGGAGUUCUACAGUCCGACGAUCUCCUUGUAGUCCAGGUGAUCAGUGGCCAACAACUCCCCAAAGUGGAUAAAACCAAAGAGACAACCGUUGUGGAUCCACUGGUGAAAGUAGAGCUCUAUGGUGUUCCUGAAUGGAAUUCUCGGGUGCCAA` — result for “RBNS enrichment (R)”: 0.454.
`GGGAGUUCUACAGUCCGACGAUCCCUCUUUCCCACCUGUCCCAGGACCAGAAUCCCAGGGACAGAGGACUGGGUAGCAGGUUCCUUCUGUUGUCCUGUGUGGUGUGUCUACUGUGAGGGUGGGCCCUGAGGAGUGGAAUUCUCGGGUGCCAA` — result for “RBNS enrichment (R)”: 0.303.
`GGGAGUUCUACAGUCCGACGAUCCUAGGUAACUGCAUAUAUAUAAGGAAUGUAUUUUGUUAAGAAGGCUUUUGUGAAAUUCAGAAUUUUUCUUUUUAAUAUAUUUCUUCCAUGGAAGAGUUGUCAUCACUAAAUGGAAUUCUCGGGUGCCAA`: “RBNS enrichment (R)” 0.598.
For `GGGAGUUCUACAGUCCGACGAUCUGGUUUUGGAAUGCAGGGUCAGCCUUGGAGUAUCUCUGAGCAUUGUGGCCUCAGCCAGGAGCGCACUGGCCAGUCUCCCAGGCCUGGAAGCACUGCAGUGUGCAGAGGCUUGGAAUUCUCGGGUGCCAA`, “RBNS enrichment (R)” read 1.47.
`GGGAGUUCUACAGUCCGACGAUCCCUAUAUUCCCAAGGAGGCUGACUCCGGGGGCCCUUCCCCCCAGGCCAGCAAUGUAUUCCGGGGAUGUAUUCUGGGGUCUGAGGGCCCUGGCCCAUUCUGAGAAAUGGAGUGGAAUUCUCGGGUGCCAA`: “RBNS enrichment (R)” 0.264.
For `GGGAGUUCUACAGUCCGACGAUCUGUAAAUCACGGAAUAUCCGUGAAGGGAUUUCUUAAUUUAUUUUUUACCGGUUGAUUGAAAUAUCAGUUAAAGGUUGCCAGCAUGGUUGCAGAUAAACUGAUGUUUGAAAUGGAAUUCUCGGGUGCCAA`, “RBNS enrichment (R)” read 0.833.
Under “RBNS enrichment (R)”, `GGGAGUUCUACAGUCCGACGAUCGUUGUCACAGUUAGUCCGGAAAUGACUGAAACCAGGCAUUCUCCCGGACCUCAGCGUGGGGGAGCCUCCAGGCAGACGCUGGGUAUGGAGCUGUGGUGUGGUCUGUCCUGUGGAAUUCUCGGGUGCCAA` is recorded as 0.338.
`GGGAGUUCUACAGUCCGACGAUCUUUCCGCAGGUCUGCUCCCCACCCCUGCCUCGGAAGAAUAAAGAGAAUGUAGUUCCCUACUCAGGCUUUCGUAGUGAUUAGCUUACUAAGGAACUGAAAAUGGGCCCCUUUGGAAUUCUCGGGUGCCAA` — result for “RBNS enrichment (R)”: 0.386.
`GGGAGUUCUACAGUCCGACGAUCGAUCUUCGGAUCGGCCACCCUCGCCCCUCGCACCCCAGCCCAGGGCGGCGGGGACUCCGAGAGCCCCGGAGAGAACGUGGCCCAGCCCUGGAGGGCAGGCGGCCACUCCCUGGAAUUCUCGGGUGCCAA` — result for “RBNS enrichment (R)”: 0.186.

Series 2
Target: Interferon regulatory factor 7, full length, phosphomimetic (IRF7, Homo sapiens, UniProt Q92985, residues 1-503, S101K/S471D/S472D/S475D/S476D/S477D/S483D/S484D/S487D)
Method: protein-binding microarray
Form: double-stranded DNA, one strand shown
Sample: in vitro
Concentration: 250 nM
Notes: 60-bp whole probe
Added: salmon DNA 0.4 mg/ml
Baseline: random background probes
Reading: higher = stronger binding
All sequences stand within: GCCTAGCAC … GTCTTGATTCGCTTGACGCTGCTG
Target sequence (chain): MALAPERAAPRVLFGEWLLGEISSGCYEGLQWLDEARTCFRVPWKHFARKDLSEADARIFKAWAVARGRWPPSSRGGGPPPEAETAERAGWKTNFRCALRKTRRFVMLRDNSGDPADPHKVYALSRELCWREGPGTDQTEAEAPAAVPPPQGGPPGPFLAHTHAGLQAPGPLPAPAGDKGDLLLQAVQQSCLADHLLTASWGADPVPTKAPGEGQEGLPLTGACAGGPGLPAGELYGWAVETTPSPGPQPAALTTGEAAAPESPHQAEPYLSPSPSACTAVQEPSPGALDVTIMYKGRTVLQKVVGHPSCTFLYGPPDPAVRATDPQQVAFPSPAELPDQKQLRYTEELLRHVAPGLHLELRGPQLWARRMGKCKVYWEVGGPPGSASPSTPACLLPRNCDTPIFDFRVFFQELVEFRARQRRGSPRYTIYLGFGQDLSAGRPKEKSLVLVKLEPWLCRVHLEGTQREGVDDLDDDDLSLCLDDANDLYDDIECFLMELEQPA
`CTGCATCTGATTTCTCAAACAGTGCTA` gave a log fluorescence of 0.244 z-score.
`GACGGTTTCCTACTACTGACGTGCTAG` gave a log fluorescence of 1.75 z-score.
With `TAAGGTCTCCTACTGCTTTAGTGCTAG` the log fluorescence was -0.134 z-score.
With `GACGGTTTCCTACAGCTGACGTGCTAG` the log fluorescence was 1.02 z-score.
For `TTAGGTATCGAACTGGGTTAGTGCTAG`, the log fluorescence was 0.0353 z-score.
`TTAGATTTCGGGTATCGTTTAGTGCTA` gave a log fluorescence of 1.95 z-score.
For `GACGATTTCAGTTTCTAGACGTGCTAG`, the log fluorescence was 1.93 z-score.
For `AAAATGATTGGTTGAACATGGTGCTAG`, the log fluorescence was -0.331 z-score.
For `TCAGCATTCCCTTTCTCACTGTGCTAG`, the log fluorescence was 0.576 z-score.
For `TTAGGCTCCGGTTTCGGTTAGTGCTAG`, the log fluorescence was 8.63 z-score.
For `ATAGGACTGGGTCTCGGTTAGTGCTAG`, the log fluorescence was 0.887 z-score.
`CTTATTCTCTACTTGTGTCTGTGCTAG` gave a log fluorescence of 2.46 z-score.
For `TCAATTTTGGTTTTCTCACTGTGCTAG`, the log fluorescence was 0.689 z-score.
`TCATCATTGCCTATTTTTCAGTGCTAG` has a log fluorescence of 1.02 z-score.

Series 3
Molecule: PhoQ, residues 284 288 289 292 302 303 ALASRC
Method: Sort-seq
Item: YFP reporter
Sample: E. coli
Notes: PhoQ-PhoP variant library
Added: 10 µM Mg2+
Baseline: high Mg2+ state
Reading: higher = stronger signaling
For PhoP, residues 12 14 15 18 19 LHHYF (Escherichia coli, UniProt P23836): fold induction read 7.51.
PhoP, residues 12 14 15 18 19 NFFVT (Escherichia coli, UniProt P23836) — fold induction: 10.1.
PhoP, residues 12 14 15 18 19 VGHWL (Escherichia coli, UniProt P23836) — fold induction: 10.4.
PhoP, residues 12 14 15 18 19 TPWTL (Escherichia coli, UniProt P23836) — fold induction: 1.46.

Series 4
Target: CCND3, cyclin fold, Cln2 fusion (human)
Method: yeast growth competition, sequencing
Sample: yeast
Notes: weak parent motif
Baseline: not given
Reading: higher = stronger binding
Starting sequence: E2F1 docking peptide (human); PPVKRRLDLETDH
Under “normalised enrichment score”, `KPVKRRLDLETDH [P1K]` is recorded as 0.162.
Under “normalised enrichment score”, `RPVKRRLDLETDH [P1R]` is recorded as -0.0154.
`PPVKRRLDLETDG [H13G]`: “normalised enrichment score” 0.202.
Under “normalised enrichment score”, `PPVKRRLDLETDE [H13E]` is recorded as 0.11.
Under “normalised enrichment score”, `PPPKRRLDLETDH [V3P]` is recorded as 0.203.
`PPVKRRLDLETGH [D12G]`: “normalised enrichment score” 0.114.
`PPVKRRGDLETDH [L7G]` — result for “normalised enrichment score”: 0.0818.
Under “normalised enrichment score”, `PPVKARLDLETDH [R5A]` is recorded as 0.096.
`PPVKRRLDLETDI [H13I]` — result for “normalised enrichment score”: 0.112.
